Assay results gathered from unrelated publications.
Lines come from different studies, so protocols differ. Numbers after ± are the reported error.
APP: Amyloid-beta precursor protein (APP, Homo sapiens, UniProt P05067)
UniProt P05067, sequence (whole entry, looked up): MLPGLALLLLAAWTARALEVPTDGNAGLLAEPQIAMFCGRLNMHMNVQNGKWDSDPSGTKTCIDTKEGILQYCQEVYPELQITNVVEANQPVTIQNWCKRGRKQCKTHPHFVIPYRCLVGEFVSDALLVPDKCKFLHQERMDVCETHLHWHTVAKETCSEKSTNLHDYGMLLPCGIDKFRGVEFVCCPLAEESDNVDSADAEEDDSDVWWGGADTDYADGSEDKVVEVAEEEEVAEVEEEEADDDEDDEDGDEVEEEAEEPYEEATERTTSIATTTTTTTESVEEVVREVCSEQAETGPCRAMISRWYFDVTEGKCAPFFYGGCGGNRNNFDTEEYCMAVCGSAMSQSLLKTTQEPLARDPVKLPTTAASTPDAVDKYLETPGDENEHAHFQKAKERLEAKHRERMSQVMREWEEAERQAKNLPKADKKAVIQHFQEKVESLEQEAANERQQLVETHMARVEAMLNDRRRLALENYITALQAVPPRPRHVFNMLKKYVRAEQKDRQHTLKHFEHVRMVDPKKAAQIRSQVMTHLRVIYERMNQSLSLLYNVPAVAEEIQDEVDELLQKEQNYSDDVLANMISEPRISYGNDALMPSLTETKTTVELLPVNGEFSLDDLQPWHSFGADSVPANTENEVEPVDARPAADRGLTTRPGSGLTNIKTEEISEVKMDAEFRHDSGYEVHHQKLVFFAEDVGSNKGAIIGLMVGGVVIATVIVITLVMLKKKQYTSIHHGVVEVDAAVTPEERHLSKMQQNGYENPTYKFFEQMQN
APP Aβ42 aggregates: Amyloid-beta precursor protein, Aβ42 aggregates (APP, Homo sapiens, UniProt P05067)
APP Aβ40 fibrils: Amyloid-beta precursor protein, Aβ40 fibrils (APP, Homo sapiens, UniProt P05067)

Compound | target | assay | test system | conditions | how to read | measurement | value
CC[C@H](C)[C@H](NC(=O)[C@@H](NC(=O)[C@@H](N)C(C)C)C(C)C)C(=O)N[C@@H](C)C(=O)O | APP | amyloid aggregation, inhibitor, fluorescence | – | 10 µM, 24 h | – | inhibition | 66.2%
N#C/C(=C\c1ccc2cc(N3CCCCC3)ccc2c1)C(=O)OCC(O)CO (stereo not drawn) | APP Aβ42 aggregates | fluorescence | – | free probe, 5% DMSO in water | – | excitation maximum | 410 nm
OC(Cc1cc(-c2ccc(C(O)C(F)(F)F)s2)sc1-c1ccc(-c2sc(-c3ccc(C(O)C(F)(F)F)s3)cc2CC(O)C(F)(F)F)s1)C(F)(F)F (stereo not drawn) | Amyloid-beta precursor protein, Aβ40 aggregates (APP, Homo sapiens, UniProt P05067) | fluorescence | – | Aβ aggregated 90 min | reference: tau Kd over Aβ Kd | Kd ratio | 108
CC(C)C[C@@H]1NC(=O)CN(C)C(=O)CCC(=O)NCCCC[C@@H](C(=O)N[C@@H](CCCNC(=N)N)C(N)=O)NC(=O)[C@H](Cc2ccccc2)NC(=O)[C@H](Cc2ccccc2)NC(=O)c2ccccc2NC1=O | APP Aβ40 fibrils | ThT fluorescence | – | 2-fold molar excess, pH 7.4, 37 °C, with: preformed Aβ1-40 fibrils 40 µM | – | amyloid fibril disruption | 71.5%
COCCOCCOCCOC(=O)/C(C#N)=C/c1ccc2cc(NCCN3CCOCC3)ccc2c1 | APP Aβ42 aggregates | fluorescence | – | free probe, 5% DMSO in water | – | emission maximum | 570 nm
CC[C@H](C)[C@H](NC(=O)[C@@H](NC(=O)C(C)(C)N)C(C)C)C(=O)N[C@@H](C)C(N)=O | APP | amyloid aggregation, inhibitor, fluorescence | – | 2 µM, 24 h | – | inhibition | 64.5%
COCCOCCOCCOC(=O)C(C#N)=Cc1ccc2cc(N3CCCCC3)ccc2c1 | Amyloid-beta precursor protein, amyloid-beta aggregates (APP, Homo sapiens, UniProt P05067) | IgG-amyloid beta binding, inhibitor, ELISA | – | with: aggregated amyloid beta | – | maximum inhibition | 58%
COCCOCCOCCOCCOC(=O)/C(C#N)=C/c1ccc2cc(N3CCCCC3)ccc2c1 | APP Aβ42 aggregates | fluorescence | – | with: aggregated Abeta42 5 µM | – | excitation maximum | 410 nm
CN(C)c1ccc(C=C(C#N)C(=O)OCC(O)CO)cc1 (stereo not drawn) | APP Aβ42 aggregates | binding, fluorescence spectroscopy | PBS | 4 µM, with: pre-aggregated Aβ(1-42) 5 µM | reference: probe without Aβ | fluorescence intensity | 2.2 fold
CC(C)C[C@@H]1NC(=O)CN(C)C(=O)CCCC(=O)NCCCC[C@@H](C(=O)N[C@@H](CCCNC(=N)N)C(N)=O)NC(=O)[C@H](Cc2ccccc2)NC(=O)[C@H](Cc2ccccc2)NC(=O)c2ccccc2NC1=O | APP Aβ40 fibrils | ThT fluorescence | – | 2-fold molar excess, pH 7.4, 37 °C, with: preformed Aβ1-40 fibrils 40 µM | – | amyloid fibril disruption | 74%
COc1cc(-c2nc3ccccc3s2)cc(CN(Cc2ccccn2)Cc2ccccn2)c1O | Amyloid-beta precursor protein, Aβ42 copper-bound (APP, Homo sapiens, UniProt P05067) | H2O2 production by Cu-Aβ42, inhibitor, HRP/Amplex Red | – | concentration not given, with: sodium ascorbate | – | inhibition | > 65%
COc1cc(OC)c2c(O)c3c(=O)cc(C)oc3c(-c3c(OC)cc4cc5c(c(O)c4c3OC)C(=O)CC(C)(O)O5)c2c1 (stereo not drawn) | APP | thioflavin-T fluorescence | – | 12.5 µM | reference: untreated | Aβ aggregation | 65.1 ± 9.5%

Some of these lines once more:
Compound | target | assay | test system | conditions | how to read | measurement | value
COc1cc(-c2nc3ccccc3s2)cc(CN(Cc2ccccn2)Cc2ccccn2)c1O | Amyloid-beta precursor protein, Aβ42 copper-bound (APP, Homo sapiens, UniProt P05067) | H2O2 production by Cu-Aβ42, inhibitor, HRP/Amplex Red | – | concentration not given, with: sodium ascorbate | – | inhibition | > 65%
